Experimental data from different studies.
Lines come from different studies, so protocols differ. Several values in a cell are separate wells, animals, samples, runs or records. Numbers after ± are the reported error.
B1: human septin-9; sequence looked up; chain MKKSYSGGTRTSSGRLRRLGDSSGPALKRSFEVEEVETPNSTPPRRVQTPLLRATVASSTQKFQDLGVKNSEPSARHVDSLSQRSPKASLRRVELSGPKAAEPVSRRTELSIDISSKQVENAGAIGPSRFGLKRAEVLGHKTPEPAPRRTEITIVKPQESAHRRMEPPASKVPEVPTAPATDAAPKRVEIQMPKPAEAPTAPSPAQTLENSEPAPVSQLQSRLEPKPQPPVAEATPRSQEATEAAPSCVGDMADTPRDAGLKQAPASRNEKAPVDFGYVGIDSILEQMRRKAMKQGFEFNIMVVGQSGLGKSTLINTLFKSKISRKSVQPTSEERIPKTIEIKSITHDIEEKGVRMKLTVIDTPGFGDHINNENCWQPIMKFINDQYEKYLQEEVNINRKKRIPDTRVHCCLYFIPATGHSLRPLDIEFMKRLSKVVNIVPVIAKADTLTLEERVHFKQRITADLLSNGIDVYPQKEFDEDSEDRLVNEKFREMIPFAVVGSDHEYQVNGKRILGRKTKWGTIEVENTTHCEFAYLRDLLIRTHMQNIKDITSSIHFEAYRVKRLNEGSSAMANGMEEKEPEAPEM

Molecule	tested on	test	system	setting	how to read	quantity	result
coproporphyrin I	–	–	human, serum	oral, dose not given, 3 h, geometric mean, added: ezetimibe plus rifampin	–	serum concentration	3.25 nM
[177Lu]Lu-DOTA-TATE	–	radio-HPLC	PBS	2 h, 37 °C, 50 MBq/nmol	–	intact radiolabelled peptide	98.1 ± 0.7%
Teicoplanin	–	measured: stability	human serum	2 days, room temperature, low QC	–	recovery	99.2%
human CCT1	PP6C (human)	co-immunoprecipitation, IP-MS	CYB5R4 knockout cells	concentration not given	baseline: CYB5R4 knockout over parental	log2 fold change	-0.21
Polymyxin B	–	untargeted LC-MS metabolomics, measured: L-arginine	Sprague-Dawley rat, right cerebral cortex	intracerebroventricular, 0.75 mg/kg, 1 h	baseline: NaCl control	log2 fold change	-1.24 and -1.2
caspofungin	–	–	adult ICU patients, mITT, serum	dose not given, EOT	–	aspartate aminotransferase	27.3 U/L
FNA / CGLSGLGVA-NH2 ([18F]FNA-labelled, C-amide)	–	ex vivo gamma counting	peptide, glioblastoma mouse model, brain	60 min post injection, added: 500-fold excess CooP blocking	–	tissue uptake	0.24 %ID/g
CTOP	–	RP-HPLC	HALO Phenyl-hexyl column	25 µM, formic acid/methanol, 10 min gradient	–	retention time	8.22 min
B1 (human septin-9)	PP6C (human)	co-immunoprecipitation, IP-MS	CYB5R4 knockout cells	concentration not given	baseline: CYB5R4 knockout over parental	log2 fold change	-0.89
regorafenib N-β-glucuronide	–	–	mouse plasma	75 ng/mL, 8 h, room temperature	–	short-term stability accuracy	107%

For quick reference, copied from above:
Molecule	tested on	test	system	setting	how to read	quantity	result
regorafenib N-β-glucuronide	–	–	mouse plasma	75 ng/mL, 8 h, room temperature	–	short-term stability accuracy	107%
